Assay results collected from several papers.
Compare with care: the assays were run in different laboratories. ± gives the spread as reported.

Under “final permeate concentration”, `O=[N+]([O-])NC1=NCCN1Cc1ccc(Cl)nc1` is recorded as 16.2 nM (ultrafiltration; cow milk whey; 20 nM nominal in whole milk).
For `O=c1nc(NO)ccn1[C@@H]1O[C@H](CO)[C@@H](O)[C@H]1O`, the bench-top stability was 104 ± 3.07% (rat fetus dialysate; 1000 ng/mL, 6 h, room temperature, high QC concentration, with: molnupiravir).
`CC(C)C[C@H](NC(=O)[C@H](CCCCN)NC(=O)OCC1c2ccccc2-c2ccccc21)C(=O)N[C@H](C(=O)N[C@@H](Cc1ccccc1)C(=O)N[C@@H](Cc1ccccc1)C(=O)N[C@@H](CCCCN)C(=O)NCC(=O)N[C@@H](Cc1ccccc1)C(=O)N[C@@H](C)C(=O)N[C@@H](Cc1c[nH]c2ccccc12)C(=O)N[C@@H](CC(N)=O)C(=O)N[C@H](C(=O)N[C@H]1CSSC[C@@H](C(=O)N[C@@H](Cc2c[nH]cn2)C(=O)N[C@@H](CCCNC(=N)N)C(=O)N[C@@H](CCCNC(=N)N)C(=O)N[C@@H](C)C(=O)N[C@@H](CC(N)=O)C(N)=O)NC(=O)[C@H](C(C)C)NC(=O)[C@H](CCCNC(=N)N)NC(=O)[C@H](C(C)C)NC(=O)CNC(=O)[C@H](CC(N)=O)NC(=O)[C@H](CCCNC(=N)N)NC(=O)[C@H](Cc2ccc(O)cc2)NC(=O)[C@H](C(C)C)NC1=O)C(C)C)C(C)C` gave a haemoglobin of 130 ± 6.59 g/L (ICR mouse, blood; intramammary, 10 mg/kg, day 5, 3 d dosing).
`CCN1[C@@H](C(=O)NC23CCC(C(=O)O)(CC2)CC3)[C@H](c2cccc(Cl)c2F)[C@]2(C(=O)Nc3cc(Cl)ccc32)C12CCCCC2` gave a Thrombocytopenia incidence of 62.5% (patients with advanced solid tumours; oral, 150 mg).
`C[C@]1(CO)Cc2ncn(-c3ccc(C#N)c(Cl)c3)c2C(=O)O1` gave a Tmax of 0.8 h (healthy Japanese adults, plasma; 20 mg single dose).
Under “incidence of vomiting”, `C=CC(=O)Nc1cc(Nc2nccc(Nc3cc(Cl)c(F)cc3C(C)(C)O)n2)c(OC)cc1N1CC[C@@H](N(C)C)C1` is recorded as 65% (treatment-emergent adverse events; human; oral, 400 mg, phase I clinical trial).
With `COc1ncccc1-c1cnn2ccc(N3CCN(C(=O)OC(C)C)CC3)nc12` the free concentration was 0.264 µM (mouse open field, plasma; oral, 30 mg/kg, 60 min).
With `COc1cc(C2C3=C(COC3=O)N(CCO)c3cc4c(cc32)CCC4)cc(OC)c1OC` (stereo not shown) the body weight was 23 g (female C57BL/6 mice; intraperitoneal, 100 mg/kg, 0 h, single dose, mean).
Under “trans isomer at photostationary state”, `O=C1CN=C(c2ccccc2)c2cc(/N=N/c3ccc(S(=O)(=O)O)cc3)ccc2N1` is recorded as 82% (HPLC; DMSO; 50 µM, with: 455 nm irradiation).
The cytotoxicity efficacy of `CCCN(CCC)CCCNC(=O)C1CCCN(Cc2nc(-c3ccc(Cl)cc3)oc2C)C1` (stereo not shown) is reported as -19% (Vero-E6; CellTiter-Glo ATP; concentration not given, 72 h, second round 5-point; reference: DMSO 0%, hyamine -100%, more negative, more toxic).
`CCc1ccc(CC/C=C/c2ccc3c(c2)C(=O)CC3)cc1` — result for “ALT serum activity”: 79.7 U/L (Sprague-Dawley rat, male; oral, 450 mg/kg/day, 14 days).
`O=S(=O)(Nc1ccccc1)c1ccc(NC(=S)Nc2ccccc2)cc1` — result for “blood chemistry level”: 16.5 mg/dL (measured: BUN; female mouse, blood; oral, 80 mg/kg daily, 14 days).
For `CCCCN1CCC(COC(=O)c2ccc(N)c(O[11CH3])c2)CC1`, the inhibition was 96 ± 3% (radioligand hydrolysis, esterase inhibitor; rhesus monkey plasma; concentration not given).
`Cc1ccc(-c2cccc(CN3CCCC(c4nc5ccc(C)cc5c(=O)[nH]4)C3)c2)c(C)c1` (stereo not shown) has a cytotoxicity efficacy of 0% (Vero-E6; CellTiter-Glo ATP; concentration not given, 72 h, second round 5-point; reference: DMSO 0%, hyamine -100%, more negative, more toxic).
`COc1ccc(C[C@@H]2NC(=O)[C@H]([C@@H](C)O)NC(=O)[C@@H]3[C@@H]4CCN3C(=O)[C@@H]3Cc5cn(c6ccc(F)cc56)CCCCCCN(Cc5ccc(cc5)CCNC(=O)[C@]5(C)CCCN5C2=O)C(=O)CCC(=O)N[C@@H](C)C(=O)N[C@H](CNC(=O)CCCCC[N+](C)(C)C)C(=O)N[C@@H](Cc2cccc(c2)CNC(=O)CO4)C(=O)N3)cc1` gave an AUC(0-t) of 1160 nM·h (human, plasma; oral, 200 mg, with: Labrasol 1800 mg).
`CC1(C)C(/C=C(\Cl)C(F)(F)F)C1C(=O)OC(C#N)c1cccc(Oc2ccccc2)c1` (stereo not shown) — result for “enzyme contribution to clearance”: 0.94% (measured: CYP3A4; human, age 6 months).
For `CO[C@H]1C[C@@H]2CC[C@@H](C)[C@@](O)(O2)C(=O)C(=O)N2CCCC[C@H]2C(=O)O[C@H]([C@H](C)C[C@@H]2CC[C@@H](OC(=O)NCCOCCOCCOCCOCCOCCOCCOCCOCCC(=O)N3CCc4cc(Cn5nc(-c6ccc7oc(N)nc7c6)c6c(N)ncnc65)ccc4C3)[C@H](OC)C2)C[C@@H](O)[C@H](C)/C=C(\C)[C@@H](O)[C@@H](OC)C(=O)[C@H](C)C[C@H](C)/C=C/C=C/C=C/1C`, “abdominal pain incidence” read 0% (patients with advanced solid tumours; intravenous, 6 mg weekly, grade 3 or higher).
`Cn1cc(-c2nc(N[C@@H]3CCCC[C@@H]3N)c(F)c3c2C(=O)NC3)cn1`: “hemorrhagic adverse events” 7% (measured: Hematochezia; patients with relapsed or refractory AML; oral, dose not given, all doses).
Under body weight, `O=S(=O)([O-])C(F)(F)C(F)(F)C(F)(F)C(F)(F)C(F)(F)C(F)(F)C(F)(F)C(F)(F)F.[K+]` is recorded as “no effect” (male C57BL/6J mice; oral gavage, 1 mg/kg, 10 days, EtOH-fed or pair-fed).
`NCCCC[C@@H]1NC(=O)[C@@H](Cc2c[nH]c3ccccc23)NC(=O)[C@H](c2ccccc2)NC(=O)[C@@H]2C[C@@H](OC(=O)NCCN)CN2C(=O)[C@H](Cc2ccccc2)NC(=O)[C@H](Cc2ccc(OCc3ccccc3)cc2)NC1=O`: “subjects with injection-site pain” 45% (healthy human volunteers; 1950 µg twice daily).
`C[C@]1(O)C[C@@](N)(c2ccc(-c3nc4n(c3-c3ccccc3)COc3ccncc3-4)cc2)C1` — result for “patients with Fatigue TEAE”: 66.7% (human, advanced or metastatic solid tumours; 28 mg intermittent, phase I dose escalation).
Under “patients grade ≥3 Hyponatremia”, `Cn1cncc1-c1c(F)cncc1NC(=O)c1c(N)nn2cc(F)cnc12` is recorded as 13% (human patients; oral, up to 40 mg once daily).
`CC(C)c1nc(N(C)S(C)(=O)=O)nc(-c2ccc(F)cc2)c1/C=C/[C@@H](O)C[C@@H](O)CC(=O)O` — result for “incidence of renal disorders”: 0% (healthy human subjects; oral, dose not given, study CL-0537 safety set).
`COc1ccc2nc3cc(Cl)ccc3c(Nc3cc(CN4CCCC4)c(O)c(CN4CCCC4)c3)c2n1` gave a neutrophil count of 1.88 10⁹/L (mouse, blood; intraperitoneal, 57 mg/kg).
Under “treatment-related adverse events”, `CC(C)(O)c1cc(Nc2cc(Oc3cn(C4CC4)nc3C3CCOCC3)ccn2)ccn1` is recorded as 0% (Anemia; patients with advanced cancer, grade 4 glioma expansion; oral, 50 mg twice daily, grade ≥3, 2 weeks on/2 weeks off schedule).
`CC(C)[C@@H]1NC(=O)CNC(=O)[C@H](CC(N)=O)NC(=O)[C@H](CCCNC(=N)N)NC(=O)[C@H](Cc2ccc(O)cc2)NC(=O)[C@H](C(C)C)NC(=O)[C@@H](NC(=O)[C@@H](NC(=O)[C@H](CC(N)=O)NC(=O)[C@H](Cc2c[nH]c3ccccc23)NC(=O)[C@H](C)NC(=O)[C@H](Cc2ccccc2)NC(=O)CN)C(C)C)CSSC[C@@H](C(=O)N[C@@H](Cc2cnc[nH]2)C(=O)N[C@@H](CCCNC(=N)N)C(=O)N[C@@H](CCCNC(=N)N)C(=O)N[C@@H](C)C(=O)N[C@@H](CC(N)=O)C(N)=O)NC(=O)[C@H](C(C)C)NC(=O)[C@H](CCCNC(=N)N)NC1=O` has a calcium of 1.37 ± 0.02 mmol/L (ICR mouse, blood; intramammary, 5 mg/kg, day 5, 3 d dosing).
`CC(=O)c1c(C)c2cnc(Nc3ccc(C4CCN(CCS(C)(=O)=O)CC4)cn3)nc2n(C2CCCC2)c1=O` gave a t1/2 of 18.8 h (human, plasma; oral, 25 mg, day 1 single dose).
For `C=C(CN(C(=O)c1c(C(F)F)nn(C)c1F)C1CC1)c1ccc(Cl)cc1Cl`, the mortality was 20% (static acute toxicity test; zebrafish (Brachydanio rerio); 1.00 mg a.i./L, 48 h).
`O=C(Nc1ccccc1)C1CCN(C(=O)Oc2cccnc2)CC1` — result for “change in Reality score”: 1.6 (psychotropic effects VAS; healthy women; 60 mg; reference: pre-dose baseline, direction not given).
`C[C@@H](NC(=O)N1C(=O)[C@H](Cc2ccnc(N)c2)[C@H]1C(=O)O)C1CCCCC1` — result for “incidence of AEs leading to discontinuation”: 25% (healthy adult Chinese volunteers; continuous intravenous infusion, 2.25 mg/kg/h, 5-day infusion, CTCAE 5.0 grading).
Under “treatment-emergent adverse events”, `CCS(=O)(=O)Nc1ccc(Oc2ccc(F)cc2F)c(-c2cn(C)c(=O)c3[nH]ccc23)c1` is recorded as 5% (fatal multiple organ dysfunction syndrome; human, relapsed/refractory AML; oral, dose not given).
For `Nc1ncnc2c1ncn2[C@@H]1O[C@@H]2COP(=O)([S-])O[C@@H]3[C@H](O)[C@@H](COP([O-])(=S)O[C@H]2[C@H]1O)O[C@H]3n1cnc2c(N)ncnc21.[Na+].[Na+]` (stereo partly shown), the RDW-SD was 20.3 ± 0.83 fL (non-tumor-bearing mice, blood; intravenous, 1 mg/kg, toxicity study).
`CC(C)(C)c1cc(-n2nc3ccccc3n2)c(O)c(C(C)(C)C)c1`: “mean daily dermal uptake” 4.31 ng/kg body weight/day (exposure assessment; human, age 21-60 years; spray sunscreen).
`CCCCCCCCCCCCCCCC(=O)N[C@@H](CCC(=O)NCCCC[C@H](NC(=O)[C@H](CC(=O)O)NC(=O)[C@H](CO)NC(=O)[C@@H](NC(=O)[C@H](Cc1ccccc1)NC(=O)[C@@H](NC(=O)CNC(=O)[C@H](CCC(N)=O)NC(=O)[C@H](CO)NC(=O)[C@@H](N)Cc1c[nH]cn1)[C@@H](C)O)[C@@H](C)O)C(=O)N[C@@H](CO)C(=O)N[C@@H](CCC(=O)O)C(=O)N[C@@H](Cc1ccc(O)cc1)C(=O)N[C@@H](CC(C)C)C(=O)N[C@@H](CC(=O)O)C(=O)N[C@@H](CO)C(=O)N[C@@H](CCC(=O)O)C(=O)N[C@@H](CCCNC(=N)N)C(=O)N[C@@H](C)C(=O)N[C@@H](CCCNC(=N)N)C(=O)N[C@@H](CC(=O)O)C(=O)N[C@@H](Cc1ccccc1)C(=O)N[C@H](C(=O)N[C@@H](C)C(=O)N[C@@H](Cc1c[nH]c2ccccc12)C(=O)N[C@@H](CC(C)C)C(=O)N[C@@H](CCC(=O)O)C(=O)N[C@@H](C)C(=O)NCC(=O)NCC(=O)O)C(C)C)C(=O)O`: “injection site erythema” 0% (human, CrCl ≥45 to <60 mL/min; sc, 100 µg single dose).
`CN1CCN(S(=O)(=O)c2cc([N+](=O)[O-])ccc2N(CCOS(C)(=O)=O)CCOS(C)(=O)=O)CC1` has an albumin of 42 g/L (naive NOD/SCID mice, pooled blood; intraperitoneal, 25 mg/kg, week 4).
`COc1ccnc(C(=O)N[C@H]2COC(=O)[C@H](Cc3ccccc3)[C@@H](OC(=O)C(C)C)[C@H](C)OC2=O)c1OCOC(=O)C(C)C`: “DT50 whole system” 1.69 days (Swiss Lake sand sediment, aerobic dark; 20 °C).
`COc1cc2c(Oc3ccc4[nH]c(C)cc4c3F)ccnc2cc1OCC1(N)CC1` — result for “grade 1 or 2 sinus tachycardia”: 18.2% (paediatric recurrent refractory sarcoma; 12 mg).

Some of these lines once more:
`CC(C)C[C@H](NC(=O)[C@H](CCCCN)NC(=O)OCC1c2ccccc2-c2ccccc21)C(=O)N[C@H](C(=O)N[C@@H](Cc1ccccc1)C(=O)N[C@@H](Cc1ccccc1)C(=O)N[C@@H](CCCCN)C(=O)NCC(=O)N[C@@H](Cc1ccccc1)C(=O)N[C@@H](C)C(=O)N[C@@H](Cc1c[nH]c2ccccc12)C(=O)N[C@@H](CC(N)=O)C(=O)N[C@H](C(=O)N[C@H]1CSSC[C@@H](C(=O)N[C@@H](Cc2c[nH]cn2)C(=O)N[C@@H](CCCNC(=N)N)C(=O)N[C@@H](CCCNC(=N)N)C(=O)N[C@@H](C)C(=O)N[C@@H](CC(N)=O)C(N)=O)NC(=O)[C@H](C(C)C)NC(=O)[C@H](CCCNC(=N)N)NC(=O)[C@H](C(C)C)NC(=O)CNC(=O)[C@H](CC(N)=O)NC(=O)[C@H](CCCNC(=N)N)NC(=O)[C@H](Cc2ccc(O)cc2)NC(=O)[C@H](C(C)C)NC1=O)C(C)C)C(C)C` gave a haemoglobin of 130 ± 6.59 g/L (ICR mouse, blood; intramammary, 10 mg/kg, day 5, 3 d dosing).
`CC(=O)c1c(C)c2cnc(Nc3ccc(C4CCN(CCS(C)(=O)=O)CC4)cn3)nc2n(C2CCCC2)c1=O` gave a t1/2 of 18.8 h (human, plasma; oral, 25 mg, day 1 single dose).
`NCCCC[C@@H]1NC(=O)[C@@H](Cc2c[nH]c3ccccc23)NC(=O)[C@H](c2ccccc2)NC(=O)[C@@H]2C[C@@H](OC(=O)NCCN)CN2C(=O)[C@H](Cc2ccccc2)NC(=O)[C@H](Cc2ccc(OCc3ccccc3)cc2)NC1=O`: “subjects with injection-site pain” 45% (healthy human volunteers; 1950 µg twice daily).
